Results of several laboratories.
Every numbered part comes from another study and shows a few of its results, in no order.

Study 1
Target: Histone acetyltransferase KAT6A, both winged helices, GST fusion (KAT6A, Homo sapiens, UniProt Q92794, residues 1-181)
Method: protein binding microarray
Molecule type: double-stranded DNA, one strand shown
Sample: in vitro
Concentration: not given
Notes: 8-mer, flanks averaged, mean of 2 arrays, mostly near background
Relative to: not given
Direction: higher = stronger binding
Residues (chain): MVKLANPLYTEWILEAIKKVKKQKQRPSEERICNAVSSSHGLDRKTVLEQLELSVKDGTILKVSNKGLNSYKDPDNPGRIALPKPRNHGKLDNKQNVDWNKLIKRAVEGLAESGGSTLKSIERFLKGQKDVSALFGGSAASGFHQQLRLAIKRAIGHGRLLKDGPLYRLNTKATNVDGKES
Oligonucleotide	E-score
CGCGGTGA	0.263
ACCGGCCA	0.104
GAATACAC	-0.0389
CCTGCGAC	-0.0174
ACTCAATA	-0.156

Study 2
Target: Fragile X messenger ribonucleoprotein 1, C-terminal low-complexity region (Fmr1, Mus musculus, UniProt P35922)
Method: RNA Bind-n-Seq
Molecule type: RNA
Sample: in vitro
Concentration: 200 nM
Notes: whole 134-nt RNA, ends assumed
With: 150 mM KCl
Relative to: input library
Direction: higher = stronger binding
Oligonucleotide	log2 enrichment
GGGAGUUCUACAGUCCGACGAUCAAGUCCUGUGCUACACAUCGUAUGUACCGAAUCGGAGGAAAAAAAGGUUUUUUUGGAAAGUAUUAUGUUACGCCGUUCGGAUCUGCACUUUGGAAUUCUCGGGUGUCAAGG	-1.11
GGGAGUUCUACAGUCCGACGAUCAGUCCUGUGCUACACAUCGUAUGUACCGAAUCGGGUUUUUUUGGGUUUGGGAAAGGGAAAGUAUUAUGUUACGCCGUUCGGAUCUGCACUUGGAAUUCUCGGGUGUCAAGG	0.163
GGGAGUUCUACAGUCCGACGAUCAAGUCCUGUGCUACACAUCGUAUGUACCGAAUCGGAAAGGAAAAAAAGGAAAAAGGAAAGUAUUAUGUUACGCCGUUCGGAUCUGCACUUUGGAAUUCUCGGGUGUCAAGG	-0.751
GGGAGUUCUACAGUCCGACGAUCUUGUGGUAUUUUAUUUACUUAUUUUUUUAAAUCUUCCAUUACAGCCAUGCCUUUCUUGGACAUCCAGAAAAGGUUCGGCCUUAACAUAGAUGGAAUUCUCGGGUGUCAAGG	-0.0435

Study 3
Target: Interferon regulatory factor 5, full length, phosphomimetic (IRF5, Homo sapiens, UniProt Q13568-2, residues 1-514, S451D/S453D/S456D/S462D)
Method: protein-binding microarray
Molecule type: double-stranded DNA, one strand shown
Sample: in vitro
Concentration: 940 nM top
Notes: 60-bp whole probe
With: salmon DNA 0.4 mg/ml
Relative to: random background probes
Direction: higher = stronger binding
Oligonucleotide	fitted relative affinity
GCCTAGCACTGTAGAGTAGCTTTCTGAGGGTGCTAGGTCTTGATTCGCTTGACGCTGCTG	-0.618 z-score
GCCTAGCACTTAGGACAGCTACTGCTTTAGTGCTAGGTCTTGATTCGCTTGACGCTGCTG	-0.497 z-score
GCCTAGCACACTTGTATTTGTCCCTATTTGTGCTAGGTCTTGATTCGCTTGACGCTGCTG	1.46 z-score
GCCTAGCACTTAGGTCTCCTTACCCTTTAGTGCTAGGTCTTGATTCGCTTGACGCTGCTG	0.319 z-score

Further values, each from its own experiment
Molecule	target	test	system	conditions	how to read	quantity	value
PhoQ, residues 284 288 289 292 302 303 AEGLLW	PhoP, residues 12 14 15 18 19 IQSYL (Escherichia coli, UniProt P23836)	Sort-seq, measured: YFP reporter	E. coli	PhoQ-PhoP variant library, with: 10 µM Mg2+	relative to: high Mg2+ state, higher = stronger signaling	fold induction	4.37

Repeated from above (further values, each from its own experiment):
Molecule	target	test	system	conditions	how to read	quantity	value
PhoQ, residues 284 288 289 292 302 303 AEGLLW	PhoP, residues 12 14 15 18 19 IQSYL (Escherichia coli, UniProt P23836)	Sort-seq, measured: YFP reporter	E. coli	PhoQ-PhoP variant library, with: 10 µM Mg2+	relative to: high Mg2+ state, higher = stronger signaling	fold induction	4.37
